{"data": "Experimental data of several laboratories", "note": "Numbered parts are unrelated; each lists some results of a single study. Positions count from the first letter of the parent shown."}
{"data": "Set 1", "target": "RING finger protein unkempt homolog, zinc fingers 1-6, SBP tag (UNK, Homo sapiens, UniProt Q9C0B0, residues 30-357)", "technique": "RNA Bind-n-Seq", "molecule type": "RNA", "matrix": "in vitro", "concentration": "100 nM", "notes": "RNA with constant flanks, vertebrate orthologous sites, ends assumed", "baseline": "input RNA pool", "reading": "higher = stronger binding", "constant ends, left off below": "GGGAGUUCUACAGUCCGACGAUC … CAACAGAGGAUUGAGCAUCA", "sequence of UniProt Q9C0B0 (30-357, looked up)": "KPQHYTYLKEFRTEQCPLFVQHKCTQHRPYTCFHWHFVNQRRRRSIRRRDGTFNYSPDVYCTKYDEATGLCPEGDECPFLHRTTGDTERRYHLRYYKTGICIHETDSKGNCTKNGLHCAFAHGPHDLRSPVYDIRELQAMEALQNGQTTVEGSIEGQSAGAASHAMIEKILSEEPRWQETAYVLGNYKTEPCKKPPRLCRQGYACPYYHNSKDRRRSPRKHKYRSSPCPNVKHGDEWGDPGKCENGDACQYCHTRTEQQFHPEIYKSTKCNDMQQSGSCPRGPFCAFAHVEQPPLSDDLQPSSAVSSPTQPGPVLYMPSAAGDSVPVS"}
{"Oligonucleotide": "GACCUCCUGAACUUCUAGCUUUCAAGUUGUGGCUGUUUUAGAUACUGAUGUUCUUUCCCUUAAGAGUUGUUUCCUGUUUCCUGCCUUCUCUUCCUCUGUUCCCAAGGUUUGACUCAUGGA", "bound/input enrichment [ratio]": 1.04}
{"Oligonucleotide": "UAAGAUUUGGAUCCUGGAGCCAAACCAAGGGGUUUGAAAGUAAAGAGAUUUGUGAAAUGCCAGCACACACAGCUGCAAGACUGCGCCACUUCUAGCUGCUGUGUUCAGGUGUUUAUUACA", "bound/input enrichment [ratio]": 0.393}
{"Oligonucleotide": "UUGGGACCAAUUCUCCAAAUAGGAAUAGUAGUAAAAAAAAUAAGCAAAAUGAUAUUUGUAUAGAAAAAACAGAAGUUAAAUCAUGUAAAGUAAAUGCUGCCAGUGUUCCAGGCCCUAAAG", "bound/input enrichment [ratio]": 0.982}
{"Oligonucleotide": "GUUGUGACCCAUUUAACAUACACAGGAAAGUAUCAAAGAAAAACUUACGUUCAAUCGACUUAGAUGAUGCAGCUUUUCUAAGUGCCAAGUUUGGAAGACAGUUUGUACCUGGUUGGAAGC", "bound/input enrichment [ratio]": 1.07}
{"Oligonucleotide": "AUCCCUCAGUGACAGUAUGCCAUCUGUAGCCGAUUCCCACUCUAGUCAUUUUUCUGAAUUUAGUUGUUCUGACCUAGAAAGCAUGAAAACUUCUUGUAGUCAUGGUUCCAAUGAUUAUCA", "bound/input enrichment [ratio]": 3.39}
{"Oligonucleotide": "GGCCCCAUCCUCGCCGAGAGGGUGGGCUCCACCAGGGGCGCUAGGCGUACAACCUUGGCAGGGUAGGACCUUGGCAGGGUAGCUGGGCUCGUGGGUUUAUAAUUUAAAGACGUUGCGACU", "bound/input enrichment [ratio]": 0.314}
{"Oligonucleotide": "AUCCUCAACUCGCUCUAGCCUGUGACCCUUCAAAACUGGGCCAGGAUUAGUGCGAGGUGCUAGGAAUUGCCGUCUCUCGCGCCAUUGAUCAGAGAGACAGACAUUAAAACAGGAAUAUCA", "bound/input enrichment [ratio]": 0.221}
{"Oligonucleotide": "UGCCCCCACCCACUGUGAGAGGGAAUGGGGGAAGCCUGAUGACCCUCAGCUGUUCCAAUCUAGUAUUUUUUUUCUUUUUUAAAAUUACUGUAUUUAUUAUGACGACGGUGACUCCCCAGU", "bound/input enrichment [ratio]": 1.69}
{"data": "Set 2", "target": "ABI1, truncated, D143A, DHFR fusion (Arabidopsis thaliana)", "technique": "DHFR PCA, deep sequencing", "matrix": "yeast", "notes": "methotrexate growth selection, single substitutions", "together with": "(+)-ABA 58 µM", "baseline": "wild-type fitted maximum", "reading": "higher = stronger binding", "parent": "PYL1, truncated, DHFR fusion (Arabidopsis thaliana); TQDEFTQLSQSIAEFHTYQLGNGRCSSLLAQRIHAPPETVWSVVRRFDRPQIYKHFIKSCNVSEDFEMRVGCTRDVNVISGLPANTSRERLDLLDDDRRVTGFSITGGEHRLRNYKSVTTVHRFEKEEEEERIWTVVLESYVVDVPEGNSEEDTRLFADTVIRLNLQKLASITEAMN"}
{"Change": "R113Q", "relative binding score [%]": 102}
{"Change": "D75K", "relative binding score [%]": 85.9}
{"Change": "T119H", "relative binding score [%]": -5.24}
{"Change": "E4V", "relative binding score [%]": 92.6}
{"Change": "F157C", "relative binding score [%]": 5.87}
{"Change": "Y53Q", "relative binding score [%]": -22.9}
{"Change": "V43Y", "relative binding score [%]": 69.7}
{"Change": "N165K", "relative binding score [%]": 18.8}
{"Change": "Q10G", "relative binding score [%]": 90.3}
{"Change": "E130C", "relative binding score [%]": 90.6}
{"Change": "W134R", "relative binding score [%]": 70.8}
{"Change": "V161L", "relative binding score [%]": 75.4}
{"Change": "P37W", "relative binding score [%]": 36}
{"Change": "P37E", "relative binding score [%]": 62.1}
{"Change": "V70E", "relative binding score [%]": 74.1}
{"Change": "H110Q", "relative binding score [%]": 21.8}
{"Change": "T154M", "relative binding score [%]": 64.3}
{"Change": "K116R", "relative binding score [%]": 95.1}
{"Change": "V100F", "relative binding score [%]": 27.2}
{"Change": "P50H", "relative binding score [%]": -5.06}
{"Change": "V137D", "relative binding score [%]": 0.846}
{"data": "Set 3", "target": "CCNF, cyclin fold, Cln2 fusion (human)", "technique": "yeast growth competition, sequencing", "matrix": "yeast", "notes": "strong parent motif", "baseline": "not given", "reading": "higher = stronger binding", "parent": "CDC25A docking peptide (human); PPHRRRLLFACSP; partner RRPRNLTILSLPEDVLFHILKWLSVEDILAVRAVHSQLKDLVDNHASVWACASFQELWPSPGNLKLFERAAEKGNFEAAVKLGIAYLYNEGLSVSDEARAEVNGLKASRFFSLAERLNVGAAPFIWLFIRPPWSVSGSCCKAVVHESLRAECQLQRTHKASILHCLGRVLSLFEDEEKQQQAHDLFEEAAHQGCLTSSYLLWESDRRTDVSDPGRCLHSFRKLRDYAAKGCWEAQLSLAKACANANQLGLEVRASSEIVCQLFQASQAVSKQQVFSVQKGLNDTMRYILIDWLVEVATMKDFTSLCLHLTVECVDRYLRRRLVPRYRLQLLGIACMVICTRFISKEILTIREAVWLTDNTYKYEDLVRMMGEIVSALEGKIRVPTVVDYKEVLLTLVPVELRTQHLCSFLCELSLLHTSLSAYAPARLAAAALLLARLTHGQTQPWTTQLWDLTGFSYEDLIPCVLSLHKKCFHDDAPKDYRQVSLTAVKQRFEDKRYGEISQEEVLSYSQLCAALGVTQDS"}
{"Change": "PPHRRRLLFWCSP [A10W]", "normalised enrichment score": 7.31}
{"Change": "PPHRRRLLFDCSP [A10D]", "normalised enrichment score": 8.96}
{"Change": "PPHRRRLLFAHSP [C11H]", "normalised enrichment score": 7.58}
{"Change": "PPHRRRLLFKCSP [A10K]", "normalised enrichment score": 6.8}
{"Change": "NPHRRRLLFACSP [P1N]", "normalised enrichment score": 6.82}
{"Change": "PGHRRRLLFACSP [P2G]", "normalised enrichment score": 6.59}
{"Change": "RPHRRRLLFACSP [P1R]", "normalised enrichment score": 6.15}
{"Change": "PEHRRRLLFACSP [P2E]", "normalised enrichment score": 6.56}
{"Change": "PPHRRILLFACSP [R6I]", "normalised enrichment score": 4.09}
{"Change": "PPHRRRLLCACSP [F9C]", "normalised enrichment score": 1.37}
{"Change": "PPHCRRLLFACSP [R4C]", "normalised enrichment score": 7.53}
{"Change": "PPHRRRLLFACFP [S12F]", "normalised enrichment score": 6.42}
{"Change": "PPHRRRLLFACYP [S12Y]", "normalised enrichment score": 7.87}
{"Change": "PPMRRRLLFACSP [H3M]", "normalised enrichment score": 7.87}
{"Change": "PPHRSRLLFACSP [R5S]", "normalised enrichment score": 1.44}
{"Change": "PPHSRRLLFACSP [R4S]", "normalised enrichment score": 3.94}
{"Change": "PPHMRRLLFACSP [R4M]", "normalised enrichment score": 3.54}
{"data": "Set 4", "target": "UBE2S UBC core domain (UniProt Q16763)", "technique": "yeast two-hybrid", "matrix": "yeast", "notes": "mostly zero background", "baseline": "not given", "reading": "higher = stronger interaction", "B1": "Ltn1 RING domain (UniProt Q6A009); chain VDKRFEGVEDCMICFSVIHGFNYSLPKKACRTCKKKFHSACLYKWFTSSNKSTCPLCRETFF", "B2": "TRIM22 RING domain (UniProt Q8IYM9); chain KEVKMSPQEGQKRDVCEHHGKKLQIFCKEDGKVICWVCELSQEHQGHQTFRINEVVKECQEK", "B3": "PRKN RING domain (UniProt O60260); chain LIATNSRNITCITCTDVRSPVLVFQCNSRHVICLDCFHLYCVTRLNDRQFVHDPQLGYSLPCVAGCPNSLIKELHH", "B4": "RNF135 RING domain (UniProt Q8IUD6); chain PVWLAEDDLGCIICQGLLDWPATLPCGHSFCRHCLEALWGARDARRWACPTCRQGAAQQPHLR", "B5": "RNF24 RING domain (UniProt Q9Y225); chain KVKELNLHELCAVCLEDFKPRDELGICPCKHAFHRKCLIKWLEVRKVCPLCNMPVLQLAQLH", "B6": "RNF181 RING domain (UniProt Q9P0P0); chain VIRGSQAELKCPVCLLEFEEEETAIEMPCHHLFHSSCILPWLSKTNSCPLCRYELPTDDDTY", "B7": "DTX1 RING domain (UniProt Q86Y01); chain QKVKNPPDEDCTICMERLVTASGYEGVLRHKGVRPELVGRLGRCGHMYHLLCLVAMYSNGNKDGSLQCPTCKAIYGEKTGTQ", "Construct (chain)": "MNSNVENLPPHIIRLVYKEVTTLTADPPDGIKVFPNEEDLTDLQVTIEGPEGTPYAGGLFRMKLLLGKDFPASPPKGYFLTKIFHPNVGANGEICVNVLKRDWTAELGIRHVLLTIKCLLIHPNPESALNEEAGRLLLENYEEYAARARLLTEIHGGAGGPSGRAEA"}
{"Sequence": "B1 (Ltn1 RING domain)", "lacZ reporter activity": 0}
{"Sequence": "ALDRLEKLLRCSRCTNILREPVCLGGCEHIFCSNCVSDCIGTGCPVCYTPAWIQDLKI (BARD1 RING domain (UniProt Q99728))", "lacZ reporter activity": 0}
{"Sequence": "B2 (TRIM22 RING domain)", "lacZ reporter activity": 0}
{"Sequence": "B3 (PRKN RING domain)", "lacZ reporter activity": 0}
{"Sequence": "B4 (RNF135 RING domain)", "lacZ reporter activity": 0}
{"Sequence": "B5 (RNF24 RING domain)", "lacZ reporter activity": 0}
{"Sequence": "QLRRLQEERTCKVCLDRAVSIVFVPCGHLVCAECAPGLQLCPICRAPVRSRVRTF (BIRC7 RING domain (UniProt Q96CA5))", "lacZ reporter activity": 0}
{"Sequence": "KLWDINAHITCRLCSGYLIDATTVTECLHTFCRSCLVKYLEENNTCPTCRIVIHQSHPLQ (PCGF3 RING domain (UniProt Q3KNV8))", "lacZ reporter activity": 0}
{"Sequence": "B6 (RNF181 RING domain)", "lacZ reporter activity": 0}
{"Sequence": "B7 (DTX1 RING domain)", "lacZ reporter activity": 0}
{"Sequence": "MDDQGCPRCKTTKYRNPSLKLMVNVCGHTLCESCVDLLFVRGAGNCPECGTPLRKSNFRV (MNAT1 RING domain (UniProt P51948))", "lacZ reporter activity": 0}
